Published values collected from several papers.
± marks the error that the study gave.

SMILES	cell line	test	conditions	how to read	quantity	value
CCC(=C(c1ccc(Cl)cc1)c1ccc(OCCN(CC)CC)cc1)c1ccc(OC)cc1	Ishikawa	estrogenic activity, agonist	100 nM, 72 h, unit not given	baseline: DMSO	alkaline phosphatase activity	1.73 ± 0.71
CC(=O)OC[C@H]1O[C@@H](Sc2sc(C(=O)c3ccc(Br)cc3)c(N)c2-c2nc3ccccc3s2)[C@H](OC(C)=O)[C@@H](OC(C)=O)[C@@H]1OC(C)=O	786-0 renal cancer	SRB	10 µM, 48 h		growth percent	105%
COc1cc(CNC(=O)C[C@H](C)CCC=C(C)C)ccc1OCc1cn(-c2ccc(C#N)cc2)nn1	KM12	SRB	10 µM, 48 h		growth percent	71.7%
C(=C/c1ccccc1)/c1ccccc1	K562	cell proliferation, CellTiter-Glo	24 h, lowest dose with significant inhibition	baseline: vehicle	lowest effective concentration	2 µM
COc1cc(CNC(=O)C[C@H](C)CCC=C(C)C)ccc1OCc1cn(-c2ccc(Cl)cc2Cl)nn1	SK-MEL-5 melanoma cells	SRB	10 µM, 48 h		growth percent	60.4%
N=C(N/N=C/c1ccccc1)N/N=C/c1ccccc1	PANC-1	crystal violet	72 h	baseline: IC50 hTERT-HPNE over IC50 PANC-1	selectivity ratio	2.1
COc1cc(CN2CCN(c3cccc(Cl)c3)CC2)c2cc3[n+](cc2c1O)CCc1cc2c(cc1-3)OCO2	Ca-Ski and MDCK	SRB	48 h	baseline: CC50 MDCK over IC50 Ca-Ski	therapeutic index	29.4
COc1cc(CNC(=O)C[C@H](C)CCC=C(C)C)ccc1OCc1cn(-c2cccc(C(F)(F)F)c2)nn1	HOP-92	SRB	10 µM, 48 h		growth percent	86.1%
C/C=C/C[C@@H](C)[C@@H](O)[C@H]1C(=O)N[C@@H](CC)C(=O)N(C)C(Cc2ccc(C(=O)NCCOCCNC(=O)CC[P+](c3ccccc3)(c3ccccc3)c3ccccc3)cc2)C(=O)N(C)[C@@H](CC(C)C)C(=O)N[C@@H](C(C)C)C(=O)N(C)[C@@H](CC(C)C)C(=O)N[C@@H](C)C(=O)N[C@H](C)C(=O)N(C)[C@@H](CC(C)C)C(=O)N(C)[C@@H](CC(C)C)C(=O)N(C)[C@@H](C(C)C)C(=O)N1C (stereo partly shown)	rat cardiomyocytes	reoxygenation-induced necrosis	3 h reoxygenation		concentration of maximal cytoprotection	3 to 15 nM
CCCCCCCCCCCCCCCC(=O)N[C@@H](CCCCN)C(=O)N[C@@H](CCCCN)C(=O)N[C@@H](CO)C(=O)N[C@@H](CCCNC(=N)N)C(=O)N[C@@H](C)C(=O)N[C@@H](CC(C)C)C(=O)N[C@@H](Cc1ccccc1)C(N)=O	human platelets	platelet aggregation, antagonist	3 µM, added: thrombin	baseline: vehicle	shift of thrombin concentration-response	5 fold
CC(CCC(=O)NCc1ccc(C(=O)NO)cc1)C1CCC2C3C(O)CC4CC(O)CCC4(C)C3CCC12C (stereo not shown)	polycystic liver disease cholangiocytes (human)		2 µM		increase in primary cilium length	~40%
COc1ccc([C@@H]2CC(=O)c3c(O)cc(O[C@@H]4O[C@H](CO[C@@H]5O[C@@H](C)[C@H](O)[C@@H](O)[C@H]5O)[C@@H](O[C@H]5O[C@H](CO)[C@@H](O)[C@H](O)[C@H]5O)[C@H](O)[C@H]4O)cc3O2)cc1O	A549	cell migration, scratch	50 µg/mL, 24 h		gap closure	4.46 ± 0.73%
O=Cc1c(O)ccc2ccccc12	HUVEC	RNA sequencing, item: ANGPT2	75 µM, 24 h	baseline: DMSO	log2 fold change	-3.38
COc1cc(CNC(=O)C[C@H](C)CCC=C(C)C)ccc1OCc1cn(-c2ccc([N+](=O)[O-])cc2)nn1	SN12C	SRB	10 µM, 48 h		growth percent	70.7%
COc1cc2c(cc1OC)CC(=O)N(C[C@H]1CCCN(CCOc3ccc(F)cc3)C1)CC2	mouse VTA dopamine neurons	firing rate, cell-attached recording	750 µM, 3 min		inhibition	87.8%
COc1cc(CNC(=O)C[C@H](C)CCC=C(C)C)ccc1OCc1cn(-c2cccc([N+](=O)[O-])c2)nn1	SN12C	SRB	10 µM, 48 h		growth percent	96.6%
Cc1c(C)n(-c2c(C(C)C)cccc2C(C)C)c(=[Se])n1-c1c(C(C)C)cccc1C(C)C.[Cl][Ag]	A2780 ADR	MTT		baseline: A2780 ADR over A2780	resistance factor	0.6
Cc1ccc(S(=O)(=O)Nc2ccc(O)c3ccccc23)c(C)c1	PANC-1		5 µM, day 4	baseline: DMSO	growth inhibition	> 50%
COC(=O)C1NC(c2ccc[n+](C)c2)C23c4c5c6c7c8c9c(c%10c%11c2c2c4c4c%12c5c5c6c6c8c8c%13c9c9c%10c%10c%11c%11c2c2c4c4c%12c%12c5c5c6c8c6c8c%13c9c9c%10c%10c%11c2c2c4c4c%12c5c6c5c8c9c%10c2c45)C713 (stereo not shown)	BCBL1	cell growth or viability	24 h		CC50	15.8 µM

Repeated from above:
SMILES	cell line	test	conditions	how to read	quantity	value
COC(=O)C1NC(c2ccc[n+](C)c2)C23c4c5c6c7c8c9c(c%10c%11c2c2c4c4c%12c5c5c6c6c8c8c%13c9c9c%10c%10c%11c%11c2c2c4c4c%12c%12c5c5c6c8c6c8c%13c9c9c%10c%10c%11c2c2c4c4c%12c5c6c5c8c9c%10c2c45)C713 (stereo not shown)	BCBL1	cell growth or viability	24 h		CC50	15.8 µM
CCC(=C(c1ccc(Cl)cc1)c1ccc(OCCN(CC)CC)cc1)c1ccc(OC)cc1	Ishikawa	estrogenic activity, agonist	100 nM, 72 h, unit not given	baseline: DMSO	alkaline phosphatase activity	1.73 ± 0.71
